Results collected from several papers.
Compare with care: the assays were run in different laboratories. ± gives the spread as reported. In brackets after ≈: the same amount, converted by molar mass.

Compound | assay | system | conditions | scale | measurement | value
CCNc1cc2[o+]c3cc(NCC)c(C)cc3c(-c3ccccc3C(=O)OCCOCC[18F])c2cc1C | – | rat | 60 min | relative to: heart over bone | tissue uptake ratio | 4.6
CC(C)[C@H](NC(=O)CNC(=O)[C@H](CCC(N)=O)NC(=O)[C@H](C)N)C(=O)O | – | human | 3 mg/kg single dose | – | subjects with serious adverse events | 0%
N#Cc1ccc(NC(=O)c2cccnc2)cc1Cl | – | PBS | 24 h, pH 7.4, room temperature | – | thermodynamic solubility | 39.3 ± 5.8 µg/mL (≈ 153 µM)
[2H]C([2H])([2H])C([2H])([2H])C([2H])([2H])OC(C(=O)OC1CCNCC1)(c1ccccc1)c1ccccc1 | item: C-reactive protein increased | healthy Japanese male | oral, 12 mg once daily, 16 days | – | adverse drug reactions | 0%
CCCCCCCCCCCCC(=O)O.O=C1CCCC2C3CCCN4CCCC(CN12)C34 (stereo not drawn) | electrical conductivity | water | 308.15 K, critical micelle concentration | – | standard Gibbs energy of micellization | -8.78 kcal/mol
CC[C@H](C)C(=O)N1CCC(NC(=O)Nc2ccc(OC(F)(F)F)c(F)c2)CC1 | – | human, plasma | oral, 16 mg, single dose, healthy volunteers | – | Tmax | 1.25 h
CN(C)C(CNC(=O)Nc1cc(C(F)(F)F)ccc1N1CCOCC1)c1ccncc1 (stereo not drawn) | – | mouse, serum | intraperitoneal, 180 mg/kg single dose | – | blood urea nitrogen | 20 mg/dL
Cc1ccc(/C=C/C(=O)O)cc1-c1cc2c(cc1C)C(C)(C)CCC2(C)C | – | Sprague-Dawley rat, male, plasma | oral, 100 mg/kg, 12 h, sesame oil vehicle | – | LDL level | 5 ± 1.5 mg/dL
CC[C@@H]1C[C@]1(NC(=O)[C@@H]1C[C@@]2(CN1C(=O)[C@@H](NC(=O)[C@@H](NC(=O)[C@@H]1CCCCN1C(C)C)C1CCCCC1)C(C)(C)C)C(C)(C)C21CCC1)C(=O)NS(=O)(=O)N1CCCC1 | – | human | oral, dose not given, with: ritonavir | relative to: without ritonavir | reduction in variability of Cmax and AUC | ~25%
CC[C@H](C)[C@@H]1NC(=O)[C@H](CCCCN)NC(=O)[C@H](CCCCN)NC(=O)[C@H](Cc2ccc(O)cc2)NC(=O)[C@H](CC(C)C)NC(=O)[C@@H]2CCCN2C(=O)[C@H](C)NC(=O)CNC(=O)CNC(=O)[C@H](CO)NC(=O)CNC(=O)CNC(=O)[C@H](CO)NC(=O)[C@H](CCC(=O)O)NC(=O)[C@H](CC(C)C)NC(=O)[C@H](CC(C)C)NC(=O)[C@H](CCCCN)NC(=O)[C@H](CCCNC(=N)N)NC(=O)[C@H]([C@@H](C)CC)NC(=O)[C@H]([C@@H](C)CC)NC(=O)[C@H](CCCCN)NC(=O)[C@H](CCCCN)NC(=O)[C@H](Cc2ccc(O)cc2)NC(=O)[C@H](CC(C)C)NC(=O)[C@@H]2CCCN2C(=O)CNC(=O)CNC(=O)[C@@H](NC(=O)CN)CSSC[C@@H](C(N)=O)NC(=O)[C@H](CC(C)C)NC(=O)[C@H](CCCCN)NC(=O)[C@H](CCCNC(=N)N)NC(=O)[C@H]([C@@H](C)CC)NC1=O | hemolysis | uninfected human erythrocytes | 1 h | – | HC10 | 28.2 ± 4.1 µM
CSCC[C@@H]1NC(=O)[C@@H]2CSSC[C@H](NC(=O)[C@H](CO)NC(=O)[C@H](C)N)C(=O)N[C@@H](CCCNC(=N)N)C(=O)N[C@@H]([C@@H](C)O)C(=O)N3CCC[C@H]3C(=O)N[C@@H](CCCCN)C(=O)N[C@@H](CC(=O)O)C(=O)N[C@H]3CSSC[C@H](NC(=O)[C@H](CCCCN)NC(=O)[C@H](CCCNC(=N)N)NC(=O)[C@H](CC(N)=O)NC1=O)C(=O)N[C@@H](CCCCN)C(=O)N[C@H]1CSSC[C@H](NC(=O)[C@@H]4CCCN4C(=O)[C@H](CC(=O)O)NC(=O)[C@H](C)NC3=O)C(=O)N[C@@H](C)C(=O)N[C@@H](CCCCN)C(=O)N[C@@H](CCC(=O)O)C(=O)N[C@@H]([C@@H](C)O)C(=O)NCC(=O)N[C@@H](CSSC[C@@H](C(N)=O)NC(=O)[C@H](CCCNC(=N)N)NC(=O)[C@H](CC(N)=O)NC1=O)C(=O)N1CCC[C@H]1C(=O)N[C@@H](Cc1ccc(O)cc1)C(=O)NCC(=O)N[C@@H](CCCCN)C(=O)N2 | – | DA rat pristane-induced arthritis, serum | subcutaneous, 0.1 mg/kg single dose at onset, 21 days | – | Creatinine | 0.2 mg/dL
N=C(N)NCc1ccc(C(=O)NCCCC[C@H](NC(=O)CCCCCCC(=O)NCCCC[C@H](NC(=O)N[C@@H](CCC(=O)O)C(=O)O)C(=O)O)C(=O)O)cc1[131I] | – | SCID mouse, PC-3 xenografts, muscle | 21 h | – | tissue uptake | 0.03 ± 0.02 %ID/g

A few entries again:
Compound | assay | system | conditions | scale | measurement | value
CSCC[C@@H]1NC(=O)[C@@H]2CSSC[C@H](NC(=O)[C@H](CO)NC(=O)[C@H](C)N)C(=O)N[C@@H](CCCNC(=N)N)C(=O)N[C@@H]([C@@H](C)O)C(=O)N3CCC[C@H]3C(=O)N[C@@H](CCCCN)C(=O)N[C@@H](CC(=O)O)C(=O)N[C@H]3CSSC[C@H](NC(=O)[C@H](CCCCN)NC(=O)[C@H](CCCNC(=N)N)NC(=O)[C@H](CC(N)=O)NC1=O)C(=O)N[C@@H](CCCCN)C(=O)N[C@H]1CSSC[C@H](NC(=O)[C@@H]4CCCN4C(=O)[C@H](CC(=O)O)NC(=O)[C@H](C)NC3=O)C(=O)N[C@@H](C)C(=O)N[C@@H](CCCCN)C(=O)N[C@@H](CCC(=O)O)C(=O)N[C@@H]([C@@H](C)O)C(=O)NCC(=O)N[C@@H](CSSC[C@@H](C(N)=O)NC(=O)[C@H](CCCNC(=N)N)NC(=O)[C@H](CC(N)=O)NC1=O)C(=O)N1CCC[C@H]1C(=O)N[C@@H](Cc1ccc(O)cc1)C(=O)NCC(=O)N[C@@H](CCCCN)C(=O)N2 | – | DA rat pristane-induced arthritis, serum | subcutaneous, 0.1 mg/kg single dose at onset, 21 days | – | Creatinine | 0.2 mg/dL
CCNc1cc2[o+]c3cc(NCC)c(C)cc3c(-c3ccccc3C(=O)OCCOCC[18F])c2cc1C | – | rat | 60 min | relative to: heart over bone | tissue uptake ratio | 4.6
